Published values gathered from unrelated publications.
Each numbered part is a random draw from the data of one study; scales do not carry over between parts.

Block 1
Target: Centromere-binding protein 1, full length, His-tagged (CBF1, Saccharomyces cerevisiae, UniProt P17106, residues 1-351)
Sequence of UniProt P17106 (whole entry, looked up): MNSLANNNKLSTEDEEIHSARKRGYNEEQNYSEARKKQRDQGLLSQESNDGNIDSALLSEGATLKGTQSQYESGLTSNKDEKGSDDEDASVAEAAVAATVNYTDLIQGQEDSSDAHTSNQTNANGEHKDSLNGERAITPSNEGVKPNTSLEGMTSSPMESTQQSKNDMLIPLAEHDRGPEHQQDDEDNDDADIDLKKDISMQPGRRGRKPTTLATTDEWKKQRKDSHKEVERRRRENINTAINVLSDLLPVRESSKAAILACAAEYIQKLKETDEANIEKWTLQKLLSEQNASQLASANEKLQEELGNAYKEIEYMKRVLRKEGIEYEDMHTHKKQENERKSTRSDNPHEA
Method: competition protein-binding microarray
Molecule type: double-stranded DNA, one strand shown
Sample: in vitro
Concentration: 2 µM
Setting: whole 60-bp probe, lowest competitor level
With: Pho4 competitor, 0.05 µM
Reading: higher = stronger binding
Strand	fluorescence intensity [a.u.]
CTAACGAAGGTTTGGGTCGTGGGTGACAAGCCAAGTGTCTTGATTCGCTTGACGCTGCTG	57.6
CGTCCTAGTGATTGTCACTCTACTTCCATGAGGAAGGTCTTGATTCGCTTGACGCTGCTG	70.6
TACGCTGCCAGCGATTTCGTGCCAGCAGCTTTGACTGTCTTGATTCGCTTGACGCTGCTG	70
CTGGAGCTGTTTCCAAACGTGGCCGGGCAATTGAGCGTCTTGATTCGCTTGACGCTGCTG	68.5

Block 2
Target: RNA binding protein fox-1 homolog 2, RRM domain, GST-SBP tag (RBFOX2, Homo sapiens, UniProt O43251-10, residues 100-194)
Method: RNA Bind-n-Seq
Molecule type: RNA
Sample: in vitro
Concentration: 365 nM
Setting: natural RNA segment, single round, ends assumed
Relative to: no-protein control
Reading: higher = stronger binding
Construct (chain): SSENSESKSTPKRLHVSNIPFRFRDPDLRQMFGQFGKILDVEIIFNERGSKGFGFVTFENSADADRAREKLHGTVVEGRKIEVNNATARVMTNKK
Strand	RBNS enrichment (R)
GGGAGUUCUACAGUCCGACGAUCUCUUGGGUGUUCCUUAUCUGGGGAAGCAAACAUUUCACUAGUCUCUUUUUUUCAUCCUUUAAAUUGUAAAUUAAGGAUUACUCAAGCUCACCAUUAUUCAAGAUUGGGACUGGAAUUCUCGGGUGCCAA	0.4
GGGAGUUCUACAGUCCGACGAUCGAGUUUCCCAGCCCCAAGUGGGGGCUGCUAGGCCCUUCCUCCCUGCCUCUGGGAACCGGGCUGGUGCCCUGCCUUUCCUGAGCAGGGCUCCUCCUCCAGAAGCGGUGGUCUGGAAUUCUCGGGUGCCAA	0.195
GGGAGUUCUACAGUCCGACGAUCAUCUUUUAACUAGUGUUUCACAAGGAUCCUCUGAAACCCUCUCUGUGCCCCAAGUACAGAUGCCAUUACUUCUGCUUUCGUAUCUCCUCAGGCAAAAGUGGAGGGUGCCUUGGAAUUCUCGGGUGCCAA	0.261
GGGAGUUCUACAGUCCGACGAUCUAUGUCUGUGAUAAUUGCUUUGACUUUAUUAUCAUGUAUUAAACAGUAAUAACAAUGGGACUUAGAGGAGGUAAACAUAACUUAUGUGCCUCAAACCAGCUAGUCCUGGAUGGAAUUCUCGGGUGCCAA	0.347

Block 3
Target: Histone acetyltransferase KAT6A, both winged helices, GST fusion (KAT6A, Homo sapiens, UniProt Q92794, residues 1-181)
Method: protein binding microarray
Molecule type: double-stranded DNA, one strand shown
Sample: in vitro
Concentration: not given
Setting: 8-mer, flanks averaged, mean of 2 arrays, mostly near background
Relative to: not given
Reading: higher = stronger binding
Residues (chain): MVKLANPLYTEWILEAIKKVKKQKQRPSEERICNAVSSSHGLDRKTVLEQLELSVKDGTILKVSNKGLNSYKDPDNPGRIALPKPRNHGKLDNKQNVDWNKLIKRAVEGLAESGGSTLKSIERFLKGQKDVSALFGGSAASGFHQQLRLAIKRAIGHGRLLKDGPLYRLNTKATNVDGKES
Strand	E-score
AGCTATTA	-0.0988
AAGCACTG	-0.181
CCACGGTA	0.211
AACGACGT	0.121
ACGTTCAG	-0.0194

Other studies, line by line
Molecule	target	test	test system	conditions	how to read	measurement	value
PhoQ, residues 284 288 289 292 302 303 TVTVVA	PhoP, residues 12 14 15 18 19 SYFRT (Escherichia coli, UniProt P23836)	Sort-seq, item: YFP reporter	E. coli	PhoQ-PhoP variant library, with: 10 µM Mg2+	relative to: high Mg2+ state, higher = stronger signaling	fold induction	10.7

A few entries again (block 2):
Strand	RBNS enrichment (R)
GGGAGUUCUACAGUCCGACGAUCAUCUUUUAACUAGUGUUUCACAAGGAUCCUCUGAAACCCUCUCUGUGCCCCAAGUACAGAUGCCAUUACUUCUGCUUUCGUAUCUCCUCAGGCAAAAGUGGAGGGUGCCUUGGAAUUCUCGGGUGCCAA	0.261
